Published values of several laboratories.
± gives the spread as reported.
TRPM8: Transient receptor potential cation channel subfamily M member 8 (TRPM8, Homo sapiens, UniProt Q7Z2W7)
FFAR4: Free fatty acid receptor 4 (FFAR4, Homo sapiens, UniProt Q5NUL3)
Kir3.1/Kir3.2: Kir3.1/Kir3.2 (Homo sapiens, UniProt P48051+P48549)
NADH dehydrogenase [ubiquinone] iron-sulfur protein 7, mitochondrial/NADH dehydrogenase [ubiquinone] iron-sulfur protein 2, mitochondrial/MT-ND1: NADH dehydrogenase [ubiquinone] iron-sulfur protein 7, mitochondrial/NADH dehydrogenase [ubiquinone] iron-sulfur protein 2, mitochondrial/MT-ND1 (Homo sapiens, UniProt O75251+O75306+P03886)

| SMILES | target or system | test | system | conditions | scale | endpoint | result |
| --- | --- | --- | --- | --- | --- | --- | --- |
| COc1c(Nc2cc(C(F)(F)F)cc(C(F)(F)F)c2)c(=O)c1=O | CD209 antigen (CD209, Homo sapiens, UniProt Q9NNX6) | covalent labelling, intact protein MS |  | 500 µM |  | kobs | 0.00193 min⁻¹ |
| O=Nc1c(-c2c(O)[nH]c3ccccc23)[nH]c2ccccc12 | TRPM8 | antagonist | HEK293 | 5 µM | relative to: control | remaining activity | 93.4 ± 10.9% |
| COc1ccccc1CNCCCCCCNCCCCCCCCNCCCCCCNCc1ccccc1OC | Muscarinic acetylcholine receptor M2 (CHRM2, Homo sapiens, UniProt P08172) | binding, antagonist, radioligand binding |  |  |  | Hill coefficient | 0.9 |
| CCCCCCCCNc1[nH]c(=O)[nH]c(=O)c1Br | FFAR4 | agonist, β-arrestin recruitment | CHO cells | 10 µM |  | activation | 0 ± 1% |
| Nc1ncnc2c1ncn2[C@@H]1O[C@H](CSCC[C@H](N)C(=O)O)[C@@H](O)[C@H]1O | O-methyltransferase (Sorghum bicolor, UniProt A0A1B6PFV1) |  |  | concentration not given, added: RSV+ |  | ΔG of binding | -7.37 kcal/mol |
| Cc1nn(C2CCS(=O)(=O)C2)c(C)c1NC(=O)COc1cc(Cl)ccc1Cl (stereo not drawn) | Kir3.1/Kir3.2 | activator, thallium flux | HEK293 | concentration not given |  | activity | inactive |
| COc1cc(Nc2ncc3c(n2)-c2ccc(Cl)cc2C(c2c(F)cccc2OC)=NC3)ccc1C(=O)O | MERTK | kinase activity |  | 1 µM |  | remaining activity | 85% |
| NC(=O)NOCCCCCCCCCCCCCC[P+](c1ccccc1)(c1ccccc1)c1ccccc1.O=C([O-])C(F)(F)F | NADH dehydrogenase [ubiquinone] iron-sulfur protein 7, mitochondrial/NADH dehydrogenase [ubiquinone] iron-sulfur protein 2, mitochondrial/MT-ND1 | complex I-dependent respiration, Seahorse XF96 | HCT-116 | 4 µM, 24 h | relative to: control | oxygen consumption rate | 8.63 ± 5.08% |
| CCCCCCCC(=O)c1cc(OC)c(OC)c(OC)c1CC(=O)OCC | Nuclear receptor subfamily 4 group A member 2, LBD (Homo sapiens, UniProt P43354) | reporter gene, Gal4 hybrid reporter |  | 10 µM | relative to: vehicle | activation | 0.98 fold |
| CC[C@@H]1[C@H](F)C(=O)N[C@@H]1COc1nccc2cc(C(N)=O)c(OC)cc12 | Ribosomal protein S6 kinase alpha-1 (RPS6KA1, Homo sapiens, UniProt Q15418) | ATP probe binding, KiNativ profiling, measured: domain 2 Lys2 site | THP-1 cell lysate | 0.04 mM |  | inhibition | -5.9% |
| COc1ccccc1-c1n[nH]c2nc(N[C@H]3CC[C@H](NS(=O)(=O)CCCOCCOCCNC(=O)OC(C)(C)C)CC3)ncc12 | cyclin 9 (Leishmania donovani, UniProt A0A2D1QVA3) | resin binding, SILAC competition pull-down, measured: CYC9 | Leishmania donovani extract | 10 µM | relative to: heavy over light | log2 fold change | 3.75 |
| CCOc1nc2cccc(C(=O)O)c2n1Cc1ccc(-c2ccccc2-c2nnn[nH]2)cc1 | Neutrophil gelatinase-associated lipocalin (LCN2, Homo sapiens, UniProt P80188, C107S) | NMR line shape analysis |  | three-state model, state 2 |  | koff | 21 ± 0.6 s⁻¹ |
| C=CC(=O)N1CCC(COCC(=O)N2CCN(c3nc(-c4cnc(N)nc4C(F)F)nc(N4CCOC[C@@H]4C)n3)CC2)CC1 | Ribosomal protein S6 kinase alpha-1, N-terminal kinase domain (RPS6KA1, Homo sapiens, UniProt Q15418) | KINOMEscan |  | 1 µM |  | remaining binding | 93% |
| COc1ccc(/C=C2\OC(=O)c3c2cc(C)[nH]c3=O)cc1 | Dual specificity calcium/calmodulin-dependent 3',5'-cyclic nucleotide phosphodiesterase 1C, isoform PDE1C2 (PDE1C, Homo sapiens, UniProt Q14123) | enzyme activity, inhibitor |  | added: 3H-cGMP substrate |  | binding free energy | -6.51 kcal/mol |
| CCCCCCCNc1cc(=O)[nH]c(=O)[nH]1 | FFAR4 | β-arrestin recruitment | CHO | 10 µM | relative to: 30 µM TUG-891 | agonist effect | 0% |
| NCc1ccc(Br)cc1 | Amine oxidase [flavin-containing] A (MAOA, Homo sapiens, UniProt P21397) | substrate |  | pH 9.0, α,α-protio substrate |  | kcat | 1.02 ± 0.0132 s⁻¹ |
| CC(C)(C)CNc1cc(=O)[nH]c(=O)[nH]1 | FFAR4 | agonist, β-arrestin recruitment | CHO cells | 10 µM |  | activation | 1% |

| SMILES | target or system | test | system | conditions | scale | endpoint | result |
| --- | --- | --- | --- | --- | --- | --- | --- |
| Cc1nc(CSc2nc(SCc3ccc(C(C)C)cc3)nc(=O)[nH]2)cs1 | DNA topoisomerase 2-alpha (TOP2A, Homo sapiens, UniProt P11388) | decatenation |  | 31.25 µM, replicate 2 |  | decatenated DNA | 14% |
| C[C@]12C[C@H](O)[C@H]3[C@@H](CCC4=CC(=O)CC[C@@]43C)[C@@H]1CC[C@@H]2C(=O)CO | Mineralocorticoid receptor (NR3C2, Homo sapiens, UniProt P08235) | reporter gene, agonist |  |  | relative to: baseline | maximal response | 52 fold |
| COc1ccc(S(=O)(=O)N(CCO)c2ccccc2CN(C)CC=Cc2ccc(Cl)cc2)cc1 | TRPM8 | antagonist | HEK293 | 5 µM | relative to: control | remaining activity | 102 ± 14% |
| O=c1cc(N2CCC(c3ccccc3)CC2)[nH]c(=O)[nH]1 | FFAR4 | agonist, β-arrestin recruitment | CHO cells | 10 µM | relative to: 30 µM TUG-891 | agonist effect | 0% |
| Cc1nn(C2CCS(=O)(=O)C2)c(C)c1NC(=O)COc1cccc(Cl)c1Cl (stereo not drawn) | Kir3.1/Kir3.2 | activator, thallium flux | HEK293 | concentration not given |  | activity | inactive |
| O=c1cc(NCCc2ccc(Cl)cc2)[nH]c(=O)[nH]1 | FFAR4 | agonist, β-arrestin recruitment | CHO cells | 10 µM |  | activation | 0% |
| O=C(COP(=O)(O)O)[C@@H](O)[C@H](O)[C@H](O)COP(=O)(O)O | Pyruvate kinase PKM (PKM, Homo sapiens, UniProt P14618) | pyruvate kinase activity, activator | A549 cell lysate | added: AIM |  | concentration reversing inhibition completely | 378 ± 35.1 nM |
| CCCCCCNc1cc(=O)[nH]c(=O)[nH]1 | FFAR4 | antagonist, β-arrestin recruitment | CHO cells | 10 µM |  | inhibition | 11 ± 2% |
| COc1cc(F)ccc1-c1ncnc(Nc2cccc(C[S@](C)(=N)=O)c2)n1 | Serine/threonine-protein kinase WNK3 (WNK3, Homo sapiens, UniProt Q9BYP7) | kinase activity |  | 10 µM, added: 10 µM ATP |  | remaining activity | 91% |
| Cn1cc(-c2ccc(-c3cncc(Cl)c3N3CCC4(CCNC4=O)CC3)cc2)cn1 | COLO 205 | gene expression, microarray, measured: KITLG mRNA |  | concentration not given, 2 h | relative to: untreated cells | log2 fold change | 1.54 |
| O=C(COc1cccc(Cl)c1Cl)NCc1cccs1 | Kir3.1/Kir3.2 | activator, thallium flux | HEK293 | concentration not given |  | activity | inactive |
| CC(C)NCCCC[C@H](NC(=O)[C@H]1CCC(=O)N[C@@H](Cc2ccccc2)C(=O)N[C@@H](Cc2ccc(O)cc2)C(=O)N[C@@H](CCCCNC(C)C)C(=O)N[C@H](CCCNC(=N)N)C(=O)N[C@@H](Cc2ccc3ccccc3c2)C(=O)NCC(=O)N1)C(N)=O | C-X-C chemokine receptor type 4 (CXCR4, Homo sapiens, UniProt P61073) |  | U87.CD4.CXCR4 cells | 75 µM, 1 h, added: [18F]AlF-NOTA-SC |  | total cellular uptake | 1.46 ± 0.02% |
| NC(=O)NOCCCCCCCCCCCCCCCC[P+](c1ccccc1)(c1ccccc1)c1ccccc1.O=C([O-])C(F)(F)F | NADH dehydrogenase [ubiquinone] iron-sulfur protein 7, mitochondrial/NADH dehydrogenase [ubiquinone] iron-sulfur protein 2, mitochondrial/MT-ND1 | complex I-dependent respiration, Seahorse XF96 | HCT-116 | 0.6 µM, 24 h | relative to: control | oxygen consumption rate | 59.7 ± 6.65% |
| CC(=C/C(=O)O)/C=C/C=C(\C)C1C=C2C(C)(C)CCCC2(C)O1 (stereo not drawn) | Rhodopsin (RHO, Homo sapiens, UniProt P08100, P23H) | ER retention, immunostaining co-localization, measured: opsin with calnexin | COS-7 transfected P23H | 20.00 µM |  | Pearson correlation coefficient | 0.54 |
| COc1cc2c(cc1O)[C@@H](Cc1ccc(O)cc1)[N+](C)(C)CC2 | Glideosome-associated protein 50 (GAP50, Plasmodium falciparum, UniProt Q8I2X3) | surface plasmon resonance |  |  |  | kon | 1500 M⁻¹ s⁻¹ |
| C#CCN(CCCN1CCN(C2CCCCC2)CC1)CC(=O)Nc1ccc(C(=O)c2ccccc2)cc1 | Sigma intracellular receptor 2 (TMEM97, Homo sapiens, UniProt Q5BJF2) | radioligand binding | RT-4 cell membranes |  | relative to: sigma1 over sigma2 receptor | selectivity ratio | ~10 fold |

A few entries again:
| SMILES | target or system | test | system | conditions | scale | endpoint | result |
| --- | --- | --- | --- | --- | --- | --- | --- |
| O=C(COc1cccc(Cl)c1Cl)NCc1cccs1 | Kir3.1/Kir3.2 | activator, thallium flux | HEK293 | concentration not given |  | activity | inactive |
| CC(C)NCCCC[C@H](NC(=O)[C@H]1CCC(=O)N[C@@H](Cc2ccccc2)C(=O)N[C@@H](Cc2ccc(O)cc2)C(=O)N[C@@H](CCCCNC(C)C)C(=O)N[C@H](CCCNC(=N)N)C(=O)N[C@@H](Cc2ccc3ccccc3c2)C(=O)NCC(=O)N1)C(N)=O | C-X-C chemokine receptor type 4 (CXCR4, Homo sapiens, UniProt P61073) |  | U87.CD4.CXCR4 cells | 75 µM, 1 h, added: [18F]AlF-NOTA-SC |  | total cellular uptake | 1.46 ± 0.02% |
| NC(=O)NOCCCCCCCCCCCCCCCC[P+](c1ccccc1)(c1ccccc1)c1ccccc1.O=C([O-])C(F)(F)F | NADH dehydrogenase [ubiquinone] iron-sulfur protein 7, mitochondrial/NADH dehydrogenase [ubiquinone] iron-sulfur protein 2, mitochondrial/MT-ND1 | complex I-dependent respiration, Seahorse XF96 | HCT-116 | 0.6 µM, 24 h | relative to: control | oxygen consumption rate | 59.7 ± 6.65% |
| CC(=C/C(=O)O)/C=C/C=C(\C)C1C=C2C(C)(C)CCCC2(C)O1 (stereo not drawn) | Rhodopsin (RHO, Homo sapiens, UniProt P08100, P23H) | ER retention, immunostaining co-localization, measured: opsin with calnexin | COS-7 transfected P23H | 20.00 µM |  | Pearson correlation coefficient | 0.54 |
| COc1cc2c(cc1O)[C@@H](Cc1ccc(O)cc1)[N+](C)(C)CC2 | Glideosome-associated protein 50 (GAP50, Plasmodium falciparum, UniProt Q8I2X3) | surface plasmon resonance |  |  |  | kon | 1500 M⁻¹ s⁻¹ |
| C#CCN(CCCN1CCN(C2CCCCC2)CC1)CC(=O)Nc1ccc(C(=O)c2ccccc2)cc1 | Sigma intracellular receptor 2 (TMEM97, Homo sapiens, UniProt Q5BJF2) | radioligand binding | RT-4 cell membranes |  | relative to: sigma1 over sigma2 receptor | selectivity ratio | ~10 fold |
